# Results from different studies.
# Each numbered part is a random draw from the data of one study; scales do not carry over between parts. Substitutions count along the parent as printed.

# Series 1 — method: universal PBM; form: double-stranded DNA, one strand shown; matrix: in vitro; concentration: not given; reading: higher = stronger binding
# Target: Sal-like protein 4, full length isoform B (SALL4, Homo sapiens, UniProt Q9UJQ4-2, residues 1-616)
# Notes: 8-mer, flanks averaged, mean of replicates
Sequence,E-score
CACCTTAG,-0.157
CGAGAAAA,0.0114
CGATGCCG,-0.284
CAGATAAC,0.155
ATATCGCG,0.0296
AGAGCGTA,-0.0679
ATGCCTTG,-0.0315
CTGCGCGA,-0.15
ATTTCACA,0.276
GACCGCAA,-0.142
CGGCAGAG,-0.347
CCGCATCC,-0.337
GCCCAGCC,-0.335
TAAGAGGA,0.0837
AACATCTA,0.105
ACCTCTAC,-0.0651
CGTCGTAC,0.00321
ATGTTGGC,-0.00996
GCTGTAAA,0.112

# Series 2 — method: protein-binding microarray; form: double-stranded DNA, one strand shown; matrix: in vitro; concentration: 250 nM; notes: 60-bp whole probe; together with: salmon DNA 0.4 mg/ml; reference: random background probes; reading: higher = stronger binding; shared flanks, not repeated: GCCTAGCAC … GTCTTGATTCGCTTGACGCTGCTG
# Target: Interferon regulatory factor 7, full length, phosphomimetic (IRF7, Homo sapiens, UniProt Q92985, residues 1-503, S101K/S471D/S472D/S475D/S476D/S477D/S483D/S484D/S487D)
# UniProt Q92985, sequence (whole entry, unmodified, looked up): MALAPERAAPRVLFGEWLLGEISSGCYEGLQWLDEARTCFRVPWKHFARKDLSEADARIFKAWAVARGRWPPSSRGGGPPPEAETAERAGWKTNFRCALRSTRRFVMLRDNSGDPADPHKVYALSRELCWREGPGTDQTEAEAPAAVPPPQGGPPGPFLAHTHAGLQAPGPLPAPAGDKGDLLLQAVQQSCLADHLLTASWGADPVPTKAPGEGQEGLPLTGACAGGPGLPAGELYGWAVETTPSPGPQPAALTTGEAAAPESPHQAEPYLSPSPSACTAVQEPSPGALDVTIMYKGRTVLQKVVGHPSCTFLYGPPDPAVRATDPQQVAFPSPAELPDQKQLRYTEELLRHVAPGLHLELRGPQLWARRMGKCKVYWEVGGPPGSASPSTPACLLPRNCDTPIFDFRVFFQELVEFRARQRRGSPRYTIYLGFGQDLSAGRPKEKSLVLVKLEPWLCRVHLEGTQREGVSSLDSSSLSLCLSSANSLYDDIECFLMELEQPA
Sequence,log fluorescence [z-score]
TTAGGACTGGACTATTGGTTAGTGCTA,-0.336
TCACTTTTGCTAATTTTACTGTGCTAG,0.75
TCATATATACCTGTATAACTGTGCTAG,0.574
GACGATTTCGGGGTTCGAGACGTGCTA,0.302
TCAAAACTCGTGTTTTTCACTGTGCTA,0.566
TTAGGTATCGGTTTCGGTTAGTGCTAG,10.7
TTATATATCGGGACTGGATTAGTGCTA,0.288
TTAGGACTGCTACTGCTTCAGTGCTAG,-0.528
TTAGGTTTCGGGTTTCGGTGAGTGCTA,11
TTAGGTATCGCCACTGGGTTAGTGCTA,-0.528
GACGGACTGGACTTTCTGGACGTGCTA,-0.956
ATAAATATGAGACTGGGGATGTGCTAG,0.0571
AAACTCGTGTTTTTCTCCTAGTGCTAG,0.491
TTAGGTATAGGACTGGGTTAGTGCTAG,0.369
TCAAGGCTGGTCTCTAACACTGTGCTA,-1.32
TTAGCTCTCCTTTTCCTTTAGTGCTAG,0.695
TTAGGACTGGACTCTCGGTTAGTGCTA,-0.0683
TTAGGTAACCTTTTCCTTTAGTGCTAG,0.797
TTAGGTTTCCTTTTCGTTTAGTGCTAG,7.15

# Series 3 — target: JUN, bZIP domain (human); method: DHFR protein complementation; matrix: yeast; reference: wild-type JUN-FOS pair; reading: higher = stronger binding
# Notes: single substitutions, most at no-binding floor
# Starting sequence: JUN, bZIP domain (human); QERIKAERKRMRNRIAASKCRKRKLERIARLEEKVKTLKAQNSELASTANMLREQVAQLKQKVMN
Change,binding fitness [natural log]
L59R,-1.2
L38I,-1.22
K34P,-1.34
L38D,-1.41
L38H,-1.33
L45Q,-1.3
L38G,-1.3
Q58P,-1.27
L38T,-1.36
L31Q,-1.47
L59P,-1.39
N42F,-1.21

# Series 4 — method: protein binding microarray; form: double-stranded DNA, one strand shown; matrix: in vitro; concentration: not given; reference: not given; reading: higher = stronger binding
# Target: Histone acetyltransferase KAT6A, winged helix 2, GST fusion (KAT6A, Homo sapiens, UniProt Q92794, residues 85-181)
# Notes: 8-mer, flanks averaged, mean of 2 arrays, mostly near background
# Target sequence (chain): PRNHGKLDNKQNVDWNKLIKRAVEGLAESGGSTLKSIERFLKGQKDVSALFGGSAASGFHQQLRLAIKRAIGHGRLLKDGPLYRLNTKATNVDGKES
Sequence,E-score
CACATATC,-0.129
ACCGAGCT,0.0826
AGGTAACA,-0.0935
AGTTGCGA,0.117
GATTCTTA,0.109
ATATGCAA,-0.0215
GGCCATAA,-0.0807
ACTGTTCC,-0.161
AAACAATT,-0.0708
ATGGCAAG,0.0732
AGCTCGGG,0.165
AGGGAGCG,0.0829
GTTAGTTA,-0.00799
ACCGGAAC,-0.0103
GTCGAGGA,-0.11
CATAAAAC,-0.0643
CGGATCAA,0.157
ACTCAAGG,0.112
GACTGTGC,-0.262
GTCAGTCA,-0.196
AGGTGCAA,0.0212
GCTGCCCA,0.0669
GGGCCCAA,0.105
AAACGGAT,0.0305
CTGTGGGC,0.138

# Repeated from above (series 1):
Sequence,E-score
ATGCCTTG,-0.0315
GCCCAGCC,-0.335
CGATGCCG,-0.284
ACCTCTAC,-0.0651
CAGATAAC,0.155
ATATCGCG,0.0296
GACCGCAA,-0.142
CTGCGCGA,-0.15
CGAGAAAA,0.0114
